# Published values from different studies.
# Each numbered part is a random draw from the data of one study; scales do not carry over between parts.

# Block 1 — read-out: enzyme activity; action: inhibitor; concentration: 20 µM; setting: hit confirmation
# Target: Replicase polyprotein 1ab, main protease (rep, Severe acute respiratory syndrome coronavirus 2, UniProt P0DTD1)
SMILES,inhibition
O=C(c1ccc(Cl)cc1)c1cc([N+](=O)[O-])ccc1N1CCOCC1,83.6%
O=C(N/N=C/c1ccc([N+](=O)[O-])o1)c1cc([N+](=O)[O-])cc([N+](=O)[O-])c1O,-5.5%
COc1cc(C(=S)N2CCOCC2)ccc1O,99.4%

# Block 2 — action: inhibitor; concentration: 20 µM
# Target: Replicase polyprotein 1ab, nsp13 helicase (rep, Severe acute respiratory syndrome coronavirus 2, UniProt P0DTD1)
SMILES,inhibition
C[C@H](NC[C@H](O)CP(=O)(O)Cc1ccccc1)c1ccc(Cl)c(Cl)c1,-3.53%
O=C(O)c1ccc(O)c2ncccc12,-0.8%
COc1ccc2[nH]c([S+]([O-])Cc3ncc(C)c(OC)c3C)nc2n1 (centres unmarked),90%
CN(C)CCC(O)(c1ccccc1)c1ccccc1Cl (centres unmarked),7.27%
CC1=C(O)C(=O)[C@@H]2O[C@@H]2C1=O,9.93%
Nc1ncnc2c1nc(Br)n2[C@@H]1O[C@@H]2COP(=O)(O)O[C@H]2[C@H]1O,1.4%
COc1ccncc1C(=O)NC(=O)Nc1ccc(-c2ccccc2)c(C(F)(F)F)c1,1.73%
CO/N=C(\C(=O)N[C@@H]1C(=O)N2C(C(=O)OCOC(=O)C(C)(C)C)=C(/C=C\c3scnc3C)CS[C@H]12)c1csc(N)n1,9.59%
CN(C)CC[C@@]1(c2ccc(Cl)cc2)Cc2ccccc2C(=O)O1 (racemic),-0.19%
CCCNC(=O)Nc1ccc(Oc2ncnc3cc(OC)c(OC)cc23)cc1Cl,7.67%
CC[C@H](C)C(=O)O[C@H]1CCC=C2C=C[C@H](C)[C@H](CC[C@@H]3C[C@@H](O)CC(=O)O3)[C@H]21,5.81%
O=C(Nc1c(-c2cccs2)nc2ccccn12)c1ccc(Cl)cc1,1.7%
Cc1ccc(S(=O)(=O)N2CCC[C@H]2c2ccc(F)cc2)cc1,1.98%
CCCNC(=O)NS(=O)(=O)c1ccc(Cl)cc1,-6.26%
CN(C)C/C=C/C(=O)Nc1cccc(C(=O)Nc2cccc(Nc3ncc(Cl)c(-c4c[nH]c5ccccc45)n3)c2)c1,10.6%
CCNC1=Nc2ccc(Cl)cc2C(C)(c2ccccc2)O1 (centres unmarked),0.97%
O=C(O)CCCCC(=O)O,-3.94%
Oc1ccc([C@@H]2Oc3ccc(O)cc3[C@@H]3CCC[C@@H]32)cc1,-0.28%
CCOC(=O)N[C@@H]1CC[C@@H]2[C@@H](C1)C[C@H]1C(=O)O[C@H](C)[C@H]1[C@H]2/C=C/c1ccc(-c2cccc(F)c2)cn1,-26%
CC(C)=CCC/C(C)=C/CC/C(C)=C/CSc1ccccc1C(=O)O,5.11%
CO[C@H]1CC[C@H](N(c2cc(C3=CCCCC3)sc2C(=O)O)C(=O)[C@H]2CC[C@H](C)CC2)CC1,73.7%
O=c1ncn2nc(Sc3ccc(F)cc3F)ccc2c1-c1c(Cl)cccc1Cl,-3.7%
CC(C)OC(=O)c1cc2c(OCC(O)CNC(C)(C)C)cccc2[nH]1 (centres unmarked),-3.69%
CC(C)(C)c1[nH]cnc1/C=c1\[nH]c(=O)/c(=C/c2ccccc2)[nH]c1=O,-20.6%
CCCCCS(=O)(=O)CCCCCCCCCCn1c(-c2ccc(O)cc2)c(C)c2cc(O)ccc21,3.81%

# Block 3 — method: RNA Bind-n-Seq; form: RNA; sample: in vitro; concentration: 200 nM; setting: whole 134-nt RNA, ends assumed; with: 150 mM KCl; relative to: input library; direction: higher = stronger binding
# Target: Ras GTPase-activating protein-binding protein 1, full length (G3BP1, Homo sapiens, UniProt Q13283)
# UniProt Q13283, sequence (whole entry, looked up): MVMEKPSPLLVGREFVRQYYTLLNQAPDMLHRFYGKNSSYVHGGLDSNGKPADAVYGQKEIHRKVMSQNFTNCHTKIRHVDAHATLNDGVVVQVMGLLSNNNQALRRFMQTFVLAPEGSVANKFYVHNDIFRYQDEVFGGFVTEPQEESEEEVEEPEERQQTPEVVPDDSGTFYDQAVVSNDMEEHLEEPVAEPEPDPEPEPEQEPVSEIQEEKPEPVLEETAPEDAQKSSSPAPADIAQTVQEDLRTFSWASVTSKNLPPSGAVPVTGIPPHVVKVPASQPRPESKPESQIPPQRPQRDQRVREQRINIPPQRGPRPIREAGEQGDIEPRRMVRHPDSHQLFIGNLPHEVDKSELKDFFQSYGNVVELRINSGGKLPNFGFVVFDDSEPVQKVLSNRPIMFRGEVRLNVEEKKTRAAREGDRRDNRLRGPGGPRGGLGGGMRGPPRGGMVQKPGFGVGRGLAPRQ
# Shared flanks, not repeated: GGGAGUUCUACAGUCCGACGAUC … UGGAAUUCUCGGGUGUCAAGG
Oligonucleotide,log2 enrichment
ACCAUGCAGGUGGGCAUCUUUGGGAAGUGGGGCAAGGGGGGGAUAGGGAGGGGGGUAACACUUUGGGCACAGGUGGUCCCAGGUCGUUUC,0.922
UCAAGUCCUGUGCUACACAUCGUAUGUACCGAAUCGGGAAGGAAGGGGAAGGGGAAAGUAUUAUGUUACGCCGUUCGGAUCUGCACUUCC,0.925
CACAGACAACACGCACCCACACAGACACAGAGGGAAGGGGUUGGGAUGGGGACAGGGUGCACAGCAGGGCGGGGUAGGAAAACAGCCCCU,1.53
AAGUCCUGUGCUACACAUCGUAUGUACCGAAUCGGGAAAAAAAGGGUGGGUUUGGGAAAGUAUUAUGUUACGCCGUUCGGAUCUGCACUU,0.236
CCUCAAGUCCUGUGCUACACAUCGUAUGUACCGAAUCGGGAGGGGAGGGGAGGAAAGUAUUAUGUUACGCCGUUCGGAUCUGCACUUCCA,0.695
CCUCAAGUCCUGUGCUACACAUCGUAUGUACCGAAUCGGGCGGCGGGGCGGGAAAGUAUUAUGUUACGCCGUUCGGAUCUGCACUUCCAG,0.962
UGGAUUAGAGAGAAAUUGAAUUUUUUCUUACUUGAACUCCUACUAAAAAGUGAACUAAAUAUUUUAUUGUAGUAAUGGCAUAGAGGAGCC,-0.274
CCUCAAGUCCUGUGCUACACAUCGUAUGUACCGAAUCGGGUGGGUGGGUGGGGAAAGUAUUAUGUUACGCCGUUCGGAUCUGCACUUCCA,1.25

# Block 4 — method: universal PBM; form: double-stranded DNA, one strand shown; sample: in vitro; concentration: 600 nM; direction: higher = stronger binding
# Target: Sal-like protein 4, full length isoform A (SALL4, Homo sapiens, UniProt Q9UJQ4, residues 1-1053)
# UniProt Q9UJQ4, sequence (whole entry, looked up): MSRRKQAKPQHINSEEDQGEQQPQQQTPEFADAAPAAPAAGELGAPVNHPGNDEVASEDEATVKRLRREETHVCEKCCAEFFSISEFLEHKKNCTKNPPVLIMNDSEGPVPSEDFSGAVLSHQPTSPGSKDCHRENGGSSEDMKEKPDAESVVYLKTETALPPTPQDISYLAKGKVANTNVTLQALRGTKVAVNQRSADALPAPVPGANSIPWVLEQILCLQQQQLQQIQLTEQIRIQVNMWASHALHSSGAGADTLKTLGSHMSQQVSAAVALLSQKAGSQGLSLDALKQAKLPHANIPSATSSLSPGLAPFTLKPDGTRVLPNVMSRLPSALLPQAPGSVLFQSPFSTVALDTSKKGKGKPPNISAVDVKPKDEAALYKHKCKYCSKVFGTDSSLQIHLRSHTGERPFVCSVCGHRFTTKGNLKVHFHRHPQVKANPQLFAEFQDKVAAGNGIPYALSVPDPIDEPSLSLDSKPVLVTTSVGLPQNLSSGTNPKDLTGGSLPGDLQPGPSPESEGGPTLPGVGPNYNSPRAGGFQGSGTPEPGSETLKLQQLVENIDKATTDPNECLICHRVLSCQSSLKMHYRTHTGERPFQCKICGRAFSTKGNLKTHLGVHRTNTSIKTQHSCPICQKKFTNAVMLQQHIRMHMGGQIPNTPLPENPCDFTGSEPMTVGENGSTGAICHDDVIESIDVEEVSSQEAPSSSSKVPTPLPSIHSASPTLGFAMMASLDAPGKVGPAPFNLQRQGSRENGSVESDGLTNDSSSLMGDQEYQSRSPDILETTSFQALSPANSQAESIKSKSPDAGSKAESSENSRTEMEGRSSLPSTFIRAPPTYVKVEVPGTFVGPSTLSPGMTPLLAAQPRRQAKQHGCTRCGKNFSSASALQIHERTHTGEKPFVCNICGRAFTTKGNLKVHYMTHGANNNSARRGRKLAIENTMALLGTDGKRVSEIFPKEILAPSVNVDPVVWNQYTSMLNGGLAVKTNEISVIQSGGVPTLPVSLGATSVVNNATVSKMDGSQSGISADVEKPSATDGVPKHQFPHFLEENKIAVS
# Setting: 8-mer, flanks averaged, mean of replicates
Oligonucleotide,E-score
CCTAATCC,-0.0874
ACATCCAC,0.0403
ATCCGTGC,0.0362
ATGGTACC,-0.108
CGTCAACA,-0.135
TCCGAAAA,0.0247
CGAGAGAA,-0.0829
CTGTCTGA,-0.0359

# Block 5 — method: competition protein-binding microarray; form: double-stranded DNA, one strand shown; sample: in vitro; concentration: 2 µM; with: Pho4 competitor, 0.05 µM; direction: higher = stronger binding; shared flanks, not repeated: … GTCTTGATTCGCTTGACGCTGCTG
# Target: Centromere-binding protein 1, full length, His-tagged (CBF1, Saccharomyces cerevisiae, UniProt P17106, residues 1-351)
# UniProt P17106, sequence (whole entry, looked up): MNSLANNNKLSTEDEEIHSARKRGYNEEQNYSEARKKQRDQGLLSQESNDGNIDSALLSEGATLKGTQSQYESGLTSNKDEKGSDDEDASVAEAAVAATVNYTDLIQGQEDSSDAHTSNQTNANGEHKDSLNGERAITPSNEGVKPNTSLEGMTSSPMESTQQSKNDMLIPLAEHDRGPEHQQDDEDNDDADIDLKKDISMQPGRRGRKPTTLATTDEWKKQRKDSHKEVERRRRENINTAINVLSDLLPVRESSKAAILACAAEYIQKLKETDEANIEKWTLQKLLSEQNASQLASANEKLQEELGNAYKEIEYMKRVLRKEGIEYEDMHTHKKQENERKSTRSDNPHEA
# Setting: whole 60-bp probe, lowest competitor level
Oligonucleotide,fluorescence intensity [a.u.]
CGTCCTAGTGATTGCAATGTGGGTGCCATGAGGAAG,104
AGTATCCTCGACCTACACGTCTTCACCATCGGCACC,52.6
CGATGTGTTTACCATCACGGGAATCAGAAATATGTT,349
TAGCCCTGTTACTGTCATGTTAGTTATTATCGTTCT,61.1
TCCTCTCCAATGGACACCGTGACGGAATCAGAAATG,112
GTCTTGTCTCATTTTCACGTGCGGTTCCCCACTTCA,552
CGTCCTAGTGATTGGGCCGTGGGTGCCATGAGGAAG,70.8
ACCTCAAGTGATGGGTACGTGGGTAGTCAGGCTTCC,61.6

# Block 6 — cell line: HEK-293T/ACE2; concentration: 10 µM; time: 16 h; relative to: vehicle
SMILES,viability
CC1COc2c(N3CCN(C)CC3)c(F)cc3c(=O)c(C(=O)O)cn1c23 (centres unmarked),99%
NC(=O)c1ncn([C@@H]2O[C@H](CO)[C@@H](O)[C@H]2O)n1,98.3%
CCN(CCO)CCCC(C)Nc1ccnc2cc(Cl)ccc12 (centres unmarked),104%
NCC1(CC(=O)O)CCCCC1,100%

# Excerpt of the above (block 6):
SMILES,viability
NCC1(CC(=O)O)CCCCC1,100%
CC1COc2c(N3CCN(C)CC3)c(F)cc3c(=O)c(C(=O)O)cn1c23 (centres unmarked),99%
CCN(CCO)CCCC(C)Nc1ccnc2cc(Cl)ccc12 (centres unmarked),104%
NC(=O)c1ncn([C@@H]2O[C@H](CO)[C@@H](O)[C@H]2O)n1,98.3%
